Results from different studies.
Compare with care: the assays were run in different laboratories. Values joined by “and” are separate records of one study, mostly repeats; a detail may differ. ± gives the spread as reported.
Dehaloperoxidase B ferric: Dehaloperoxidase B, ferric (Amphitrite ornata, UniProt Q9NAV7)
MT-CYB/UQCRFS1: MT-CYB/UQCRFS1 (Homo sapiens, UniProt P00156+P47985)
TOP2A: DNA topoisomerase 2-alpha (TOP2A, Homo sapiens, UniProt P11388)
SLC6A6 Y138A: Sodium- and chloride-dependent taurine transporter (SLC6A6, Homo sapiens, UniProt P31641, Y138A)
Protein lin-28 homolog A: Protein lin-28 homolog A (Mus musculus, UniProt Q8K3Y3)
T1: preQ1-III riboswitch (Faecalibacterium prausnitzii); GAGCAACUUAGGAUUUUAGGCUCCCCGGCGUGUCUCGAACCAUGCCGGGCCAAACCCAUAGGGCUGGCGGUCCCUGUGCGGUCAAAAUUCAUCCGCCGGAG

`Cc1cc2ccccc2n1CCNC(=O)c1ccc(N2CCCCC2)cc1` gave a selectivity ratio of greater than 275 fold (PTGDR (Homo sapiens, UniProt Q13258); receptor antagonism; C6 glioma; baseline: EP2 over DP1).
`Nc1nc2c(ncn2[C@@H]2O[C@H](COP(=O)(O)O)[C@@H](O)[C@H]2O)c(=O)[nH]1` has a reaction rate of 20.6 s⁻¹ and 17.9 s⁻¹ and 16.4 s⁻¹ (GUK1 (Homo sapiens, UniProt Q16774, T83A); enzyme activity, NADH-coupled; 125 µM).
`Cc1cc(NS(=O)(=O)c2ccc(N=NN(C)O)cc2)no1` gave an inhibition of 37.5 ± 1.38% (α-glucosidase, rat intestine; enzyme activity; 120 µg/mL, added: 4-nitrophenyl α-D-glucopyranoside).
The fold enrichment of `Cc1ccc(N2CC(C(N)=O)CC2=O)cc1` (stereo not drawn) is reported as 1 (YTHDF2 (Homo sapiens, UniProt Q9Y5A9); binding, affinity selection mass spectrometry; baseline: other proteins in batch).
`Oc1ccc(/C=C/c2cc(O)cc(O)c2)cc1` — result for “-TΔS of binding”: 3.98 kcal/mol (O-methyltransferase (Sorghum bicolor, UniProt A0A1B6PFV1); isothermal titration calorimetry; concentration not given, apo protein).
With `CC[C@@H]1[C@H](F)C(=O)N[C@@H]1COc1nccc2cc(C(N)=O)c(OC)cc12` the inhibition was 32.4% (CLK2 (Homo sapiens, UniProt P49760); ATP-site probe binding, ActivX profiling; THP-1 cell lysate; 0.04 mM, Lys2 site).
With `CCCCC[C@H](O)/C=C/[C@H]1C(=O)C[C@H](O)[C@@H]1C/C=C\CCCC(=O)O` the GTP hydrolysis was 83.8% and 73.7% and 82.9% and 75.4% (GNAS, with Gbeta and Ggamma (Homo sapiens, UniProt P63092); modulator; 100 µM, without A2AR; baseline: Gs alone).
`O=C(COP(=O)(O)O)[C@@H](O)[C@H](O)[C@H](O)COP(=O)(O)O` — result for “thermal stability ratio”: 3.71 (GAPDH (Homo sapiens, UniProt P04406); thermal proteome profiling; HepG2 cell lysate; concentration not given, 57 over 37 °C, mean; baseline: compound over control).
With `NC/C(=C\F)COc1cccc(Cn2c(=S)[nH]c(=O)c3[nH]cnc32)c1` the H2O2 concentration was -0.113 µM (Myeloperoxidase (MPO, Homo sapiens, UniProt P05164); H2O2 consumption, inhibitor, H2O2 electrode; 10 µM, 0.2 s).
Under “share of total products”, `O=CNc1ccc(Br)cc1C=O` is recorded as 0.5% (Dehaloperoxidase B ferric; product, HPLC; added: 5-bromoindole 500 µM, H2O2 500 µM).
For `Nc1ncnc2c1ncn2[C@@H]1O[C@H](COP(=O)(O)OP(=O)(O)OP(=O)(O)O)[C@@H](O)[C@H]1O`, the Km was 29.5 µM (hexokinase yeast; substrate; pH 8.0, 25 °C, 1.5 mM MgCl2, added: glucose varied).
For `CCN1CCC[C@H]1CNC(=O)c1c(O)c(Cl)cc(Cl)c1OC`, “log2 fold change” read 0.163 (Probable G-protein coupled receptor 19 (GPR19, Homo sapiens, UniProt Q15760); β-arrestin recruitment, TANGO luminescence, refers to: GPR19; concentration not given; baseline: basal luminescence).
For `CC(C)CC(=O)N[C@H](C(=O)N[C@H](C(=O)N[C@@H](CC(C)C)[C@@H](O)CC(=O)N[C@@H](C)C(=O)N[C@@H](CC(C)C)[C@@H](O)CC(=O)NCCOCCOCCC(=O)NCCCC[C@H](NC(=O)CN1CCN(CC(=O)O)CCN(CC(=O)O)CC1)C(=O)O)C(C)C)C(C)C`, “dissociation rate constant” read 0.00762 s⁻¹ (Cathepsin D (CTSD, Homo sapiens, UniProt P07339); surface plasmon resonance).
`CC(C)(O)c1ccccc1CC[C@@H](SCC1(CC(=O)O)CC1)c1cccc(/C=C/c2ccc3ccc(Cl)cc3n2)c1`: “BAL fluid eosinophils” “decreased” (Cysteinyl leukotriene receptor 1 (Mus musculus, UniProt Q99JA4); female MC-Cysltr2 knockout mice; intraperitoneal, 30 mg/kg).
With `CCCC[C@H]1C(=O)N(C)[C@@H](CCCC)C(=O)N[C@@H](CCCCNC(=O)CN2CCN(CC(=O)O)CCN(CC(=O)O)CC2)C(=O)N[C@H](C(=O)NCC(N)=O)CSCC(=O)N[C@@H](Cc2ccc(O)cc2)C(=O)N(C)[C@@H](C)C(=O)N[C@@H](CC(N)=O)C(=O)N2CCC[C@H]2C(=O)N[C@@H](Cc2c[nH]cn2)C(=O)N[C@@H](CCC(=O)O)C(=O)N2C[C@H](O)C[C@H]2C(=O)N[C@@H](Cc2c[nH]c3ccccc23)C(=O)N[C@@H](CO)C(=O)N[C@@H](Cc2cn(CC(=O)O)c3ccccc23)C(=O)N1C` [gallium-68 labelled] the cell uptake was 4.71% (CD274 (Homo sapiens, UniProt Q9NZQ7); C6661; 60 min).
The viability of `COc1c(O)cc2c(c1O)C(=O)c1c(cc(C)c(O)c1OC)C2=O` is reported as 88.8 ± 4.99% (HK-2 co-cultured with HepaRG; MTT; 16.67 µM, 48 h; baseline: untreated control).
Under “ACh peak current”, `CCOc1ccc(NC(=O)O[C@H](Cn2nc(C(C)C)cc2C(C)C)C(C)C)cc1` is recorded as 94 ± 6% (Neuronal acetylcholine receptor; alpha4/beta2, (α4)2(β2)3 stoichiometry (Homo sapiens, UniProt P17787+P43681); ion current, potentiator, TEVC; 1 µM, high-sensitivity (α4)2(β2)3, added: ACh 10 µM; baseline: ACh alone).
`NC(=O)NO`: “oxygen consumption rate” 92.2 ± 10.4% (MT-CYB/UQCRFS1; complex III-dependent respiration, Seahorse XF96; HCT-116; 150 µM, 24 h; baseline: control).
`C=CC(=O)N1CCC(COCC(=O)N2CCN(c3nc(-c4cnc(N)nc4C(F)F)nc(N4CCOC[C@@H]4C)n3)CC2)CC1` has a remaining binding of 98% (ZAP70 (Homo sapiens, UniProt P43403); KINOMEscan; 1 µM).
`O=c1nc(SCc2cc(F)cc(C(F)(F)F)c2)nc(SCc2ccc3nc(Cl)ccc3c2)[nH]1` — result for “ATP hydrolysis rate”: 0.197 µM/min and 1.64 µM/min (TOP2A; ATPase activity; 7.8 µM, added: ATP 0.25 mM).
`NCCCCC(=O)O` has a fraction bound of 0 (SLC6A6 Y138A; binding, microscale thermophoresis; 30.5 nM, fitted curve; higher = more binding).
`CCCCOc1cc(C(=O)NCCN(CC)CC)c2ccccc2n1` — result for “inactivation V1/2 shift”: -69 mV (PKD2L1 (Homo sapiens, UniProt Q9P0L9); ion current, whole-cell patch clamp; concentration not given, 2 s prepulse; baseline: untreated).
`O=C1Nc2ccc(Br)cc2C1O` (stereo not drawn) — result for “share of total products”: 7.7% (Dehaloperoxidase B ferric; product, HPLC; added: 5-bromoindole 500 µM, H2O2 100 µM).
`NCCS(=O)(=O)O` — result for “normalised MST signal”: 0.0532 (SLC6A6 Y138A; binding, microscale thermophoresis; 7.81 µM, room temperature, added: 50 nM labelled protein; higher = more binding).
With `N=C(N)SCc1ccccc1Cl` the Hill slope was -1.6 (Protein lin-28 homolog A).
Under “oxygen consumption rate”, `NC(=O)NOCCCCCCCCCCCC[P+](c1ccccc1)(c1ccccc1)c1ccccc1.O=C([O-])C(F)(F)F` is recorded as 23.6 ± 2.42% (MT-CYB/UQCRFS1; complex III-dependent respiration, Seahorse XF96; HCT-116; 10 µM, 24 h; baseline: control).
Under “closed dwell time constant T2”, `CCCCC[C@@H]1OC(=O)[C@@H](C)N(C)C(=O)[C@H](CCCCC)OC(=O)[C@@H](C)N(C)C(=O)[C@H](CC(=O)O)OC(=O)[C@@H](C)N(C)C(=O)[C@H](CCCCC)OC(=O)[C@@H](C)N(C)C1=O` is recorded as 79 ± 47 ms (ryanodine receptor 2 (Sus scrofa, UniProt A0A5G2R1W3); single-channel gating, planar lipid bilayer; 50 µM, pCa 7, porcine).
With `[O-][S+]1CCCCS1` (stereo not drawn) the target engagement was 49.7% (SOD1 (Homo sapiens, UniProt P00441, G94A); intact protein LC-MS; SOD1 G93A transgenic mice, whole blood; intravenous, 10 mg/kg, 8 h, mean of two mice).
`Cn1c(SCc2ccccc2Cl)nc(=O)c2c1NC(=O)CC2c1ccc2c(c1)OCCO2` (stereo not drawn) has a Hill slope of -1.7 (Protein lin-28 homolog A).
`NCc1c[nH]c2nc(N)[nH]c(=O)c12` gave a Kd of 0.0174 µM (T1, preQ1-III riboswitch (Faecalibacterium prausnitzii); ITC; NaCl 100 mM, apparent, single-site fit).
With `O=S(=O)(Nc1nccs1)c1ccc(N=NN(O)c2ccccc2)cc1` the inhibition was 35 ± 0.041% (α-glucosidase, rat intestine; enzyme activity; 180 µg/mL, added: 4-nitrophenyl α-D-glucopyranoside).
For `NC(=O)NOCCCCCCCCCCCCCCCCCCCC[P+](c1ccccc1)(c1ccccc1)c1ccccc1.O=C([O-])C(F)(F)F`, “oxygen consumption rate” read 102% (MT-CYB/UQCRFS1; complex III-dependent respiration, Seahorse XF96; HCT-116; 0.5 µM, 24 h; baseline: control).
With `COc1cc2c(c(O)c1OC)C(=O)c1c(cc(C)c(O[C@@H]3O[C@H](CO)[C@@H](O)[C@H](O)[C@H]3O)c1OC)C2=O` the cell viability was 101 ± 4.14% (HK-2 co-cultured with HepaRG; MTT; 16.67 µM, 48 h; baseline: untreated control).
The relaxed DNA of `O=c1nc(SCc2cc(F)cc(C(F)(F)F)c2)nc(SCc2ccc3sccc3c2)[nH]1` is reported as 48.4% (TOP2A; DNA relaxation; 15.6 µM, replicate 1).
`NC(=O)NOCCCCCCCCCCCCCC[P+](c1ccccc1)(c1ccccc1)c1ccccc1.O=C([O-])C(F)(F)F` — result for “oxygen consumption rate”: 83.9 ± 10% (MT-CYB/UQCRFS1; complex III-dependent respiration, Seahorse XF96; HCT-116; 0.1 µM, 24 h; baseline: control).
The substrate conversion of `CC(=O)NCCCCNCCC(=O)Nc1ccc2c(C)cc(=O)oc2c1` is reported as 93.3% (hdac10 (Danio rerio, UniProt F1QCV2); substrate; enzyme 0.1 µL/well).
